# Experimental data gathered from unrelated publications.
# Protocols differ between the studies behind these lines. “And” joins repeats or separate records; there may be more than shown. Numbers after ± are the reported error.
Compound,target or system,test,test system,setting,quantity,value
CSCC[C@H](NC(=O)[C@@H](NC(=O)[C@H](CC(C)C)NC(=O)[C@@H](NC(=O)[C@H](Cc1c[nH]cn1)NC(=O)CCCCCNC(=O)[C@H](CCCNC(=N)N)NC(=O)[C@H](CCCNC(=N)N)NC(=O)[C@H](CCCNC(=N)N)NC(=O)[C@H](CCC(N)=O)NC(=O)[C@H](CCCNC(=N)N)NC(=O)[C@H](CCCNC(=N)N)NC(=O)[C@H](CCCCN)NC(=O)[C@H](CCCCN)NC(=O)[C@H](CCCNC(=N)N)NC(=O)CNC(=O)[C@@H](N)Cc1ccc(O)cc1)C(C)C)C(C)C)C(=O)N[C@@H](CS)C(=O)N[C@@H](C)C(=O)N[C@H](C(N)=O)[C@@H](C)O,,,C57BL/6J mice,"Alzet osmotic pump, 3 mg/kg, 8 weeks",serum Calcium,9 mg/dL and 9.8 mg/dL and 9.2 mg/dL
CC[C@H](C)[C@H](NC(=O)[C@H](CCCNC(=N)N)NC(=O)[C@H](CCCCN)NC(=O)[C@H](Cc1ccc(O)cc1)NC(=O)[C@H](CC(=O)O)NC(=O)[C@H](C)NC(=O)CNC(=O)CCOCCOCCOCCNC(=O)CN1CCN(CC(=O)O)CCN(CC(=O)O)CCN(CC(=O)O)CC1)C(=O)N[C@H](C(=O)N[C@@H](CC(C)C)C(=O)N[C@@H](CCCCN)C(=O)N[C@H](C(=O)N[C@@H](CC(N)=O)C(N)=O)C(C)C)[C@@H](C)O [copper-64 labelled],,ex vivo gamma counting,"C57BL/6J male mice, B16-F10 tumour, kidney","intravenous, 1.85 MBq, 100 min",tissue uptake,10.2 ± 3.69 %ID/g
Cc1nc(N2CCC(N(C)c3cc(C(=O)NCCN4CCCC4)cnn3)CC2)nc(C)c1CC(C)C,,,female hamster,"oral, 100 mg/kg",AUC(0-last),54600 ng·h/mL
C[C@H](O)[C@@H](NC(=O)[C@H]1CCCN1C(=O)[C@@H](CCCCN)NC(=O)[C@@H](CO)NC(=O)[C@@H](Cc1ccc(O)cc1)NC(=O)[C@@H](CC(N)=O)NC(=O)CCOCCOCCOCCNC(=O)CN1CCN(CC(=O)O)CCN(CC(=O)O)CCN(CC(=O)O)CC1)C(=O)N[C@H](CC(=O)O)C(=O)N[C@H](CCCNC(=N)N)C(=O)N[C@H](CCC(N)=O)C(=O)N[C@H](Cc1ccc(O)cc1)C(=O)N[C@H](Cc1c[nH]cn1)C(=O)N[C@H](Cc1ccccc1)C(N)=O [gallium-68 labelled],,,"BALB/c nude mice U-87 MG tumour, spleen","intravenous, 1.85 MBq, 2 h, radiolabelled",tissue uptake,0.09 ± 0.03 %ID/g
O=C1NC2(CC2)COc2ncc(F)cc2[C@H]2COCCN2c2ccn3ncc1c3n2,,,"Sprague-Dawley rat, female, brain","oral, 5 mg/kg/day, 4 weeks",organ weight,1.93 ± 0.125 g
CC[C@H](C)[C@H](NC(=O)[C@H](CCCCN)NC(=O)CNC(=O)[C@H](CC(C)C)NC(=O)[C@H](Cc1ccccc1)NC(=O)[C@H](CCCCN)NC(=O)[C@H](CO)NC(=O)[C@H](Cc1ccccc1)NC(=O)[C@H](Cc1c[nH]c2ccccc12)NC(=O)[C@H](CCC(N)=O)NC(=O)[C@@H](NC(=O)[C@H](Cc1ccccc1)NC(=O)CCCCCNC(=O)CN1CCN(CC(=O)O)CCN(CC(=O)O)CCN(CC(=O)O)CC1)C(C)C)C(=O)N[C@@H](CCC(=O)O)C(=O)N1CCC[C@H]1C(=O)N[C@@H](CC(=O)O)C(=O)N[C@H](C(=O)N[C@@H](CO)C(=O)N[C@@H](CCC(N)=O)C(=O)N[C@H](C(=O)N[C@@H](CCC(N)=O)C(=O)N[C@@H](CC(=O)O)C(=O)N1CCC[C@H]1C(=O)N[C@@H](CC(N)=O)C(=O)N[C@@H](CC(=O)O)C(=O)N[C@@H](CCC(N)=O)C(=O)N[C@@H](Cc1ccc(O)cc1)C(=O)N[C@@H](CCC(=O)O)C(=O)N1CCC[C@H]1C(=O)N[C@@H](Cc1ccccc1)C(=O)O)C(C)C)C(C)C [copper-64 labelled],,,"C57BL/6 mice, bone","vehicle, intratracheal instillation",tissue uptake,0.73 ± 0.1 %ID/g
Cc1ccc(OCCN(C)C)cc1C(=O)N[C@H](C)c1cc(-c2ccc(C(F)(F)F)s2)nc2ccccc12,Vero E6,,,3.906 µM,viability,118% and 107%
N#[11C]c1ccc(-c2csc(NN=C3CCCC3)n2)cc1,,,"C57BL/6 mouse, male","intravenous, 3 MBq, 30 min",uptake in large intestine with contents,1.46 ± 0.3 %ID/g
CCCCCCCCCCCCCCCC(=O)NCCCC[C@H](NC(=O)[C@H](CCC(=O)O)NC(=O)[C@H](Cc1ccc(O)cc1)NC(=O)[C@H](CCC(=O)O)NC(=O)COCC(=O)NCCCOCCOCCOCCCNC(=O)[C@H](Cc1ccccc1)NC(=O)[C@H](CC(N)=O)NC(=O)[C@H](Cc1c[nH]cn1)NC(=O)[C@@H](NC(=O)[C@H](CC(=O)O)NC(=O)[C@H](CCC(N)=O)NC(=O)[C@H](CC(C)C)NC(=O)[C@H](CCCCN)NC(=O)[C@H](CCCCN)NC(=O)[C@H](CCCNC(=N)N)NC(=O)[C@H](CC(C)C)NC(=O)[C@H](Cc1c[nH]c2ccccc12)NC(=O)[C@H](CCC(=O)O)NC(=O)[C@@H](NC(=O)[C@H](CCCNC(=N)N)NC(=O)[C@H](CCC(=O)O)NC(=O)[C@H](CCSC)NC(=O)[C@H](CO)NC(=O)[C@H](CC(N)=O)NC(=O)[C@H](CC(C)C)NC(=O)[C@H](Cc1c[nH]cn1)NC(=O)[C@H](CCCCN)NC(=O)CNC(=O)[C@H](CC(C)C)NC(=O)[C@H](CC(N)=O)NC(=O)[C@H](Cc1c[nH]cn1)NC(=O)[C@H](CCSC)NC(=O)[C@H](CC(C)C)NC(=O)[C@H](CCC(N)=O)NC(=O)[C@@H](NC(=O)[C@H](CCC(=O)O)NC(=O)[C@H](CO)NC(=O)[C@@H](NC(=O)[C@@H](N)CO)C(C)C)[C@@H](C)CC)C(C)C)C(C)C)C(=O)N[C@@H](CCC(=O)O)C(=O)N[C@@H](Cc1ccc(O)cc1)C(=O)N[C@@H](CCC(=O)O)C(N)=O,,,"female CD-1 mouse, serum","intravenous, 10 nmol/kg",Tmax,1.8 min
CC(C)C[C@H](NC(=O)CNC(=O)[C@H](CCC(N)=O)NC(=O)[C@H](CC(C)C)NC(=O)[C@H](CC(C)C)NC(=O)[C@H](CCCNC(=N)N)NC(=O)[C@H](CCC(N)=O)NC(=O)[C@H](CC(C)C)NC(=O)[C@H](CCCNC(=N)N)NC(=O)[C@H](C)NC(=O)CNC(=O)[C@H](CCC(=O)O)NC(=O)[C@H](CCCNC(=N)N)NC(=O)[C@H](CC(C)C)NC(=O)[C@H](CCCNC(=N)N)NC(=O)[C@H](CO)NC(=O)[C@H](CC(C)C)NC(=O)[C@H](CCC(=O)O)NC(=O)[C@H](CO)NC(=O)[C@@H](NC(=O)[C@H](Cc1ccccc1)NC(=O)[C@@H](NC(=O)CNC(=O)[C@H](CC(=O)O)NC(=O)C(C)(C)NC(=O)[C@@H](N)Cc1c[nH]cn1)[C@@H](C)O)[C@@H](C)O)C(=O)N[C@@H](CC(C)C)C(=O)N[C@@H](CCC(N)=O)C(=O)NCC(=O)N[C@@H](CC(C)C)C(=O)N[C@H](C(=O)NCC(=O)N[C@@H](CCCCNC(=O)COCCOCCNC(=O)COCCOCCNC(=O)CC[C@H](NC(=O)CCCCCCCCCCCCCCCCC(=O)O)C(=O)O)C(N)=O)C(C)C,,,"male C57BL/6J mice, diet-induced obese, plasma","subcutaneous, 300 nmol/kg twice daily, 2 h post-dose, day 8",plasma concentration,914 nM
COc1ccc(CNc2ccc3c(c2)S(=O)(=O)C=C3)cc1,,,"male C57BL/6 mice, blood","intraperitoneal, 5 mg/kg, day 8, group average",mean corpuscular volume,51.2 fL
N=C(N)NCCC[C@@H](NC(=O)[C@H](N)Cc1c[nH]c2ccccc12)C(=O)N[C@H](CCCCN)C(=O)N[C@H](Cc1c[nH]c2ccccc12)C(=O)N[C@H](CCCNC(=N)N)C(=O)N[C@H](CCCCN)C(=O)N[C@H](Cc1c[nH]c2ccccc12)C(=O)N[C@H](CCCNC(=N)N)C(=O)N[C@H](CCCCN)C(=O)N[C@H](Cc1c[nH]c2ccccc12)C(=O)N[C@H](CCCNC(=N)N)C(=O)N[C@H](CCCCN)C(N)=O,,,"mouse, serum",20 mg/kg,NGAL level,41.6 ng/mL
CCCC[C@@H]1NC(=O)[C@H](Cc2ccc(O)cc2)NC(=O)[C@@H]2CCCN2C(=O)[C@H](CC(=O)O)NC(=O)[C@H](C)NC(=O)[C@H](Cc2ccccc2)NC(=O)[C@@H]2CSCCC(=O)N3CN(CN(C3)C(=O)CCSC[C@@H](C(=O)N[C@@H](C)C(N)=O)NC1=O)C(=O)CCSC[C@H](NC(C)=O)C(=O)N[C@@H](CC(C)(C)C)C(=O)N1CCC[C@H]1C(=O)N[C@@H](CCC(=O)O)C(=O)N[C@H](CCCCNC(=O)CCc1cn(CCOCCOCCOCCN(CCOCCOCCOCCC(=O)N[C@H]3CSCCC(=O)N4CN5CN(C4)C(=O)CCSC[C@H](NC(=O)[C@@H](CC(=O)O)NC(=O)[C@H](Cc4cccc6ccccc46)NC(=O)[C@@H]4CCCN4C3=O)C(=O)N[C@@H](CCSC)C(=O)N[C@@H](CCCCNC(=N)N)C(=O)N[C@@H](CC(=O)O)C(=O)N[C@@H](Cc3c[nH]c4ccccc34)C(=O)N[C@@H](CO)C(=O)N[C@@H]([C@@H](C)O)C(=O)N3CCC[C@H]3C(=O)N3C[C@H](O)C[C@H]3C(=O)N[C@@H](Cc3c[nH]c4ccccc34)C(=O)N[C@H](C(N)=O)CSCCC5=O)CCOCCOCCOCCn3cc(CCC(=O)NCCCC[C@H]4NC(=O)[C@H](CCC(=O)O)NC(=O)[C@@H]5CCCN5C(=O)[C@H](CC(C)(C)C)NC(=O)[C@@H](NC(C)=O)CSCCC(=O)N5CN6CN(C5)C(=O)CCSC[C@H](NC(=O)[C@H](Cc5ccc(O)cc5)NC(=O)[C@@H]5CCCN5C4=O)C(=O)N[C@@H](Cc4ccccc4)C(=O)N[C@@H](C)C(=O)N[C@@H](CC(=O)O)C(=O)N4CCC[C@H]4C(=O)N[C@@H](Cc4ccc(O)cc4)C(=O)N[C@@H](CCCC)C(=O)N[C@H](C(=O)N[C@@H](C)C(N)=O)CSCCC6=O)nn3)nn1)C(=O)N1CCC[C@H]1C(=O)N[C@@H](Cc1ccc(O)cc1)C(=O)N2,,,cynomolgus monkey,,CL,4 ± 0.8 mL/min/kg
Cc1ccc(OCCN(C)C)cc1C(=O)N[C@H](C)c1cc(-c2ccc(CNC3CCCC3)s2)nc2ccccc12,Vero E6,,,31.25 µM,viability,0.685% and 0.228%
